Measured values pooled from the literature.
Protocols differ between the studies behind these lines.
Target: Inhibitor of nuclear factor kappa-B kinase subunit alpha (CHUK, Homo sapiens, UniProt O15111)
Residues used in one study (O15111 1-745): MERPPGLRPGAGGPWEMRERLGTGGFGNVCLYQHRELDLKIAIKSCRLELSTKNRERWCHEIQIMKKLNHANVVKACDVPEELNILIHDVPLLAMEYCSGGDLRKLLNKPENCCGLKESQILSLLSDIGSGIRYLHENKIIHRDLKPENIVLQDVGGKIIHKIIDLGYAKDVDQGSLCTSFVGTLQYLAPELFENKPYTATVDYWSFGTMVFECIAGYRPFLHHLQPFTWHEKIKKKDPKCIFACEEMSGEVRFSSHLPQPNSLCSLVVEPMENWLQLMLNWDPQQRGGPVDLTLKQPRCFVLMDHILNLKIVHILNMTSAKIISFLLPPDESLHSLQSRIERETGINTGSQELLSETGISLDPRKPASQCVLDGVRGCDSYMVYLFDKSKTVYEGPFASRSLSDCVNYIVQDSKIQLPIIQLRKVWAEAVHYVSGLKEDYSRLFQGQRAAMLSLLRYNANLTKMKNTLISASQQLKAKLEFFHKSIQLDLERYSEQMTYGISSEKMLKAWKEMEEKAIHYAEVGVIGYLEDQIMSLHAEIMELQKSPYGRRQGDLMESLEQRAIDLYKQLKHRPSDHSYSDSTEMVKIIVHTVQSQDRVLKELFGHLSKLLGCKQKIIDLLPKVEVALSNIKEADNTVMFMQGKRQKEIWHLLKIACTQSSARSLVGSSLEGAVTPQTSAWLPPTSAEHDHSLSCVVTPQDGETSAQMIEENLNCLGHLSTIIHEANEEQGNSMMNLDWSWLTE

For `COc1cc(-n2cc3cc(F)cc(C(N)=O)c3n2)cc(Cl)c1C1CC(O)(CCO)Cc2ccccc21` (centres unmarked), the inhibition was 0.4% (enzyme activity, inhibitor; 10 µM).
`C=CC(=O)N1CCCC(n2c(=O)c3ncccc3n(Cc3ccc(Oc4ccccc4)cc3)c2=O)C1` (centres unmarked) has a remaining binding of 78% (cell-free assay, competition with immobilised ligand; 1 µM).
For `CNC(=O)C[C@H](Cc1ccc(C#N)cc1)NC(=O)c1cc(-c2ccc(CN[C@H](C)c3ccc(C)cc3)o2)ccc1Cl`, “activity vs control” read 96% (enzyme activity, inhibitor; 1 µM).
For `Cc1cccc(O[C@H]2CCC[C@@H](C(C)CNCc3ccncc3)C2)c1` (relative stereo), the inhibition was 12% (enzyme activity, inhibitor; 10 µM).
The remaining binding of `CN1CCN(Cc2ccc(NC(=O)c3cccc(C#Cc4cnc(N)c5ncccc45)c3)cc2C(F)(F)F)CC1` is reported as 1.9% (cell-free assay, competition with immobilised ligand; 50 nM).
For `O=C=[N][Ru-4]123([n]4c5ccc(O)cc5c5c6c(c7cc(F)c[n+]1c7c54)C(=O)NC6=O)[S+]1CC[S+]2CC[S+]3CC1` (centres unmarked), the remaining activity was 119% (enzyme activity; 100 nM, human enzyme, with: 10 µM ATP; relative to: untreated).
`CNS(=O)(=O)Nc1nccc(Cc2c(C)c3ccc(Oc4ncccc4F)cc3oc2=O)c1F` gave a remaining binding of 81% (cell-free assay, competition with immobilised ligand; 10 µM).
The remaining activity of `Nc1ncc(-c2cc(-c3cnn(CC(F)(F)F)c3)ncc2F)nc1C(=O)NC1CNCC(F)C1` (centres unmarked) is reported as 111% (enzyme activity; 1 µM; relative to: DMSO control).
`Cc1cnc2nc1Nc1cccc(c1)COC/C=C/COCc1cc(ccc1OCCN1CCOCC1)N2` has a remaining binding of 94% (binding, competition with immobilised ligand; 0.1 µM).
The inhibition of `CN1CCN(Cc2ccc(-c3ccc(CO[C@H]4CCC[C@@H]4NC(=O)c4cc(-c5cnn(C)c5)cnc4N)cc3)cc2)CC1` is reported as 3% (enzyme activity, inhibitor; 0.1 µM).
The remaining binding of `COc1cc(Nc2nc(C)cc(-c3cnn4nc(OC)ccc34)n2)cc(C(F)(F)F)c1` is reported as 95% (KINOMEscan; 1 µM, IKK-alpha; relative to: DMSO).
The inhibition of `C=CC(=O)Nc1cc(-c2nn(C3CCN(CCNC(=O)[C@H](C)CCC45CC6CC(CC(C6)C4)C5)CC3)c3ncnc(N)c23)ccc1Oc1ccccc1` is reported as 8.5% (inhibitor, KiNativ profiling; biochemical; 2 µM).
The inhibition of `Fc1cncc(-c2ccc3[nH]c4ncnc(N[C@H]5CC[C@H](N6CCOCC6)CC5)c4c3c2)c1` is reported as 68% (enzyme activity, inhibitor, radiometric; 1 µM).
With `C=C1CCCCCCCCCC(CO)C1=O` (centres unmarked) the remaining signal was 87% (cell-free assay; 10 µM).

Repeated from above:
`Cc1cnc2nc1Nc1cccc(c1)COC/C=C/COCc1cc(ccc1OCCN1CCOCC1)N2` has a remaining binding of 94% (binding, competition with immobilised ligand; 0.1 µM).
